Published values from different studies.
A part holds a random share of what one study measured. Positions count from the first letter of the parent shown.

Series 1
Target: UDP-N-acetylglucosamine--peptide N-acetylglucosaminyltransferase 110 kDa subunit (OGT, Homo sapiens, UniProt O15294)
Chain of UniProt O15294 (whole entry, looked up): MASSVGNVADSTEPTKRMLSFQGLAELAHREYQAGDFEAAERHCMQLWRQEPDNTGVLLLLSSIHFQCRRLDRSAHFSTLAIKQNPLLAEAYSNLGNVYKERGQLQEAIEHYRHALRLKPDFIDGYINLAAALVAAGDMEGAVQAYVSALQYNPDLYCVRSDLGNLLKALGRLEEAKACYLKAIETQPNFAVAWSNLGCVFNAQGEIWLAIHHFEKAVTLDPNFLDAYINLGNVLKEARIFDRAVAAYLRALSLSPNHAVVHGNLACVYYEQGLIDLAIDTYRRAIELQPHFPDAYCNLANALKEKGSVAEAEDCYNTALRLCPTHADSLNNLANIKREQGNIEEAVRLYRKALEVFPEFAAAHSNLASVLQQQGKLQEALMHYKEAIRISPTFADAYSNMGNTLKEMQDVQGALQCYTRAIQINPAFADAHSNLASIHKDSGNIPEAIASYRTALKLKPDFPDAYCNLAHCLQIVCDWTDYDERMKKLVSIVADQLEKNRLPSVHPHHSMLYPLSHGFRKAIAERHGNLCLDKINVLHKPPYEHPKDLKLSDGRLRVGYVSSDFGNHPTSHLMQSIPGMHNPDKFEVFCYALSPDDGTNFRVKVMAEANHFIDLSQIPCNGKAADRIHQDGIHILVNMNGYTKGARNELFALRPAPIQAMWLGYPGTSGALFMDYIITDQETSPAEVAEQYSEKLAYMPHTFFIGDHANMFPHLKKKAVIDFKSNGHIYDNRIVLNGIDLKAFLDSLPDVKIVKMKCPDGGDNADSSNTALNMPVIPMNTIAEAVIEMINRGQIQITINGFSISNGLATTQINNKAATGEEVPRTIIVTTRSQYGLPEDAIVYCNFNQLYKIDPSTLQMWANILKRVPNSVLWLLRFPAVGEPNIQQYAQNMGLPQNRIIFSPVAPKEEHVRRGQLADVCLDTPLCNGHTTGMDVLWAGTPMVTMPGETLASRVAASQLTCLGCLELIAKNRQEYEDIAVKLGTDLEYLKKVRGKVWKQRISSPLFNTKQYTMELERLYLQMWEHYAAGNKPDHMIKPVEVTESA
Observed: phage display binding
Technique: phage display panning NGS
Form: peptide
Setting: panning round 3
Relative to: OGT-panned over input library
`WVLVPPFYQIVPSNR` has a fold enrichment of 5.17.
The fold enrichment of `YNIYNPAYQIAYKF` is reported as 2.84.
`YIERTSVMPQYQITY` has a fold enrichment of 2.75.
`VEQSSPFAPQYQIQM` has a fold enrichment of 5.13.
For `QQIPSIMPMYQIVTP`, the fold enrichment was 2.69.
`NDMFAPKYQLTWREF` gave a fold enrichment of 4.61.
For `QLFPPVYIMKLDSQ`, the fold enrichment was 3.87.
`STFGRYLPSYIIQYR` has a fold enrichment of 3.16.

Series 2
Target: Muscarinic acetylcholine receptor M3 (CHRM3, Homo sapiens, UniProt P20309)
Chain of UniProt P20309 (whole entry, looked up): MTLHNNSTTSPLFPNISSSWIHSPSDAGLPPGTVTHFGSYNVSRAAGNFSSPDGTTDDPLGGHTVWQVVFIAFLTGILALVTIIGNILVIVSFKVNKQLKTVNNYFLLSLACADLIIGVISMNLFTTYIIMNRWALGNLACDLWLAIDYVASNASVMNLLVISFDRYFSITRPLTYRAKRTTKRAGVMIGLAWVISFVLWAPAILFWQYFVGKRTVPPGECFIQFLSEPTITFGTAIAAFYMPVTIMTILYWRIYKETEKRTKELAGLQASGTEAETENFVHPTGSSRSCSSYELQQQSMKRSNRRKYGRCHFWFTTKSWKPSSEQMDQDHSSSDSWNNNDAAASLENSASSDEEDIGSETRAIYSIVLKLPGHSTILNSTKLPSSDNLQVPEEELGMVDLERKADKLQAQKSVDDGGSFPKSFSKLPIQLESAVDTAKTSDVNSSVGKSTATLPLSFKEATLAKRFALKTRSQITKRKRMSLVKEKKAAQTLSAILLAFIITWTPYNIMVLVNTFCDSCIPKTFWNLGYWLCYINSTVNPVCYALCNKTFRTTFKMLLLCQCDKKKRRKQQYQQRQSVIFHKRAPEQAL
Observed: binding
Technique: radioligand binding
Concentration: 10 µM
`CC1=C(C#N)[C@@H](c2ccc3[nH]nc(C)c3c2)C(C#N)=C(c2ccc(Cl)cc2)N1` has an inhibition of 8.81%.
The inhibition of `O=C(NC[C@@H]1[C@H]2CN(C(=O)OCc3cc(C(F)(F)F)cc(C(F)(F)F)c3)C[C@@H]12)c1ccc2[nH]nnc2c1` is reported as -25.5%.
For `CN(C)C(=O)Cn1cc(-c2nc([C@@](C)(c3ccc(-c4cnc(N)nc4)cc3)C3CC3)no2)cn1`, the inhibition was 7.43%.
With `CC(C)CC(=O)N1CCc2nc(-c3ccc(Br)cc3)nc(N(C)Cc3ccccc3)c2C1` the inhibition was 13.5%.
The inhibition of `CS(=O)(=O)NCC[C@H](NC(=O)c1cncc2c1cnn2-c1ccc(F)cc1)c1ccnc(S(C)(=O)=O)c1` is reported as -13.8%.
The inhibition of `O=C1CCc2cc(Nc3cc(OC4CCOCC4)c([N+](=O)[O-])cc3Cl)ccc2N1` is reported as -11.4%.
With `CC(=O)Nc1nc(CN2CCC[C@H](Cc3cc(C)nc(C)c3)C2)cs1` the inhibition was -9.98%.
With `CNC(=O)c1cc(C(=O)NC2CC2)cn(Cc2ccccc2)c1=O` the inhibition was 21.4%.
The inhibition of `CC(=O)N1CCC(c2ccc(C(=O)NC(=N)N)cc2C(F)(F)F)CC1` is reported as 12.1%.
`CC(C)(O)c1cncc(-c2nc3ccc(F)cc3n2C2CC2)c1` has an inhibition of 1.04%.
For `COCc1nc2cnc3cc(-c4c(C)noc4C)c(OC[C@H]4CCNC4)cc3c2n1[C@H](C)c1ccccc1`, the inhibition was -3.35%.
`COc1nc2ccc([C@@](O)(c3ccccc3)C3CCN(C(C)=O)CC3)cc2c(Cl)c1Cc1ccc(-n2cccn2)cc1` gave an inhibition of 0.49%.
`Cc1c(NC(=O)c2cc(C(N)=O)nc3cc(F)ccc23)c(C(F)(F)F)nn1Cc1ccc(C(C)(C)C)cc1` gave an inhibition of 1.86%.
With `CC(=O)Nc1c(F)cc(C(=O)N[C@H]2CC[C@H](O)CC2)cc1O[C@@H](C)c1ccccc1` the inhibition was 16%.

Series 3
Target: CCNA2, cyclin fold, Cln2 fusion (human)
Technique: yeast growth competition, sequencing
Sample: yeast
Setting: strong parent motif
Relative to: not given
Reading: higher = stronger binding
Starting sequence: viral docking peptide; YKVKRRLVFGADD
For `G10E`, “normalised enrichment score” read 6.24.
`V8E`: “normalised enrichment score” 6.49.
`L7K`: “normalised enrichment score” 0.462.
`R6K` — result for “normalised enrichment score”: 6.36.
`V8L`: “normalised enrichment score” 6.47.
`R5C`: “normalised enrichment score” 4.53.
Under “normalised enrichment score”, `K4M` is recorded as 4.12.
For `G10A`, “normalised enrichment score” read 6.6.

Series 4
Target: vanadate, free oxyanion
Technique: microfluidic competitive inhibition
Sample: in vitro, cell-free expressed
Concentration: not given
Setting: derived from inhibition constants, unchanged parent 676 nM
Reading: lower = stronger binding
Starting sequence: PafA, mature enzyme, eGFP fusion (Elizabethkingia meningoseptica, UniProt Q9KJX5); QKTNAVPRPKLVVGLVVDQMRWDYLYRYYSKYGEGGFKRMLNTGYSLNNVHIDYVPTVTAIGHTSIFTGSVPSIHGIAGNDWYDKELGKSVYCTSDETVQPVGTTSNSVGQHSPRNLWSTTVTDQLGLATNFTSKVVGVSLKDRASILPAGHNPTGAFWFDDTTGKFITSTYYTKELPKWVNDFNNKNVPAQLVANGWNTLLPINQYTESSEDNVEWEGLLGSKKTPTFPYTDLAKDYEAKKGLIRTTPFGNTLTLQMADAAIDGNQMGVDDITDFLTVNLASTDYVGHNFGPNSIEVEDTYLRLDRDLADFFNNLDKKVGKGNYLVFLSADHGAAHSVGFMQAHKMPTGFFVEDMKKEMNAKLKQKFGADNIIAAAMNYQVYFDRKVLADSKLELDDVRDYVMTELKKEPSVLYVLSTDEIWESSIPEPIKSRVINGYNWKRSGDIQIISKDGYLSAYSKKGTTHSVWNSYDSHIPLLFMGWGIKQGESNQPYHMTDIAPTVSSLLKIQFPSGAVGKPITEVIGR
For `P114G`, “oxyanion analog dissociation constant” read 1.1 µM.
For `K518G`, “oxyanion analog dissociation constant” read 524 nM.
`S392G`: “oxyanion analog dissociation constant” 680 nM.
`Y238G` — result for “oxyanion analog dissociation constant”: 607 nM.
Under “oxyanion analog dissociation constant”, `Q192V` is recorded as 820 nM.
For `K408G`, “oxyanion analog dissociation constant” read 614 nM.
Under “oxyanion analog dissociation constant”, `S504G` is recorded as 604 nM.
`D401V` — result for “oxyanion analog dissociation constant”: 657 nM.

For quick reference, copied from above (series 3):
For `G10A`, “normalised enrichment score” read 6.6.
`L7K`: “normalised enrichment score” 0.462.
`V8E`: “normalised enrichment score” 6.49.
`V8L`: “normalised enrichment score” 6.47.
`R5C`: “normalised enrichment score” 4.53.
